Experimental data collected from several papers.
A part holds a random share of what one study measured.

Study 1
Target: Histone acetyltransferase KAT6A, both winged helices, GST fusion (KAT6A, Homo sapiens, UniProt Q92794, residues 1-181)
Technique: protein binding microarray
Form: double-stranded DNA, one strand shown
Medium: in vitro
Tested at: not given
Setting: 8-mer, flanks averaged, mean of 2 arrays, mostly near background
Relative to: not given
Reading: higher = stronger binding
Construct (chain): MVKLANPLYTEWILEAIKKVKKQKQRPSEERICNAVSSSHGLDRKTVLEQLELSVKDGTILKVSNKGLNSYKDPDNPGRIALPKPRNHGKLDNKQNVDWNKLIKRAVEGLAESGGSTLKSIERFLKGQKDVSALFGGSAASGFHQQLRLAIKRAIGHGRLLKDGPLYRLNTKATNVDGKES
Strand | E-score
CTAGGTCA | -0.179
TATCATAA | -0.0606
CACCGTGC | 0.0663
AAATGCAG | -0.288
CGAGAATC | 0.0543
CAAGTCCC | -0.0923
AACCTAGT | -0.191
CCCGTAAA | 0.168

Study 2
Target: Centromere-binding protein 1, full length, His-tagged (CBF1, Saccharomyces cerevisiae, UniProt P17106, residues 1-351)
Sequence of UniProt P17106 (whole entry, looked up): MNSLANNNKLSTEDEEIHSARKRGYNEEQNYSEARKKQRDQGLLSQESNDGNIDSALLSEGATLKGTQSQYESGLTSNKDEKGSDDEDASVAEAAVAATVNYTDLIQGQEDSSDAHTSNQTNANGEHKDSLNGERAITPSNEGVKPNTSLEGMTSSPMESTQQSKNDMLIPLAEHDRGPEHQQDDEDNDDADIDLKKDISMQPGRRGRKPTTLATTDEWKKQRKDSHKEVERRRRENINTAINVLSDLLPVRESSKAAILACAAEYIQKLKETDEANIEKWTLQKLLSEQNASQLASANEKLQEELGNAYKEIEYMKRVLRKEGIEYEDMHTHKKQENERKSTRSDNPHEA
Technique: competition protein-binding microarray
Form: double-stranded DNA, one strand shown
Medium: in vitro
Tested at: 2 µM
Setting: whole 60-bp probe, lowest competitor level
Added: Pho4 competitor, 0.05 µM
Reading: higher = stronger binding
Shared flanks, not repeated: … GTCTTGATTCGCTTGACGCTGCTG
Strand | fluorescence intensity [a.u.]
GTTCTTACAAACAGGAACATTAGCATCATTGGATAC | 72.4
TGCGCAACAACTTGCGGAGTGGGTGTATGTCTAGAA | 54.5
CCGCTAATAACCGTCCCCGTGACGGAGTACCTATCG | 768
TCCAATGGTTCGAACCATGTGGAAGAAGATGCAGAA | 77
AGTATCCTCGACCTACACGTCTTCACCATCGGCACC | 52.6
GTCGCAGTGTCGTCGTACGTGATGGGGGCAGGCTTG | 97.2
CCGCGGAATAGCGTTCCCGTGGGTAGAAAAGCAGCA | 99.6
AAGAATTTTATATGGCTTGTGATGAGACTGACGTCC | 84.3

Study 3
Target: RING finger protein unkempt homolog, zinc fingers 1-6, GST-SBP tag (UNK, Homo sapiens, UniProt Q9C0B0, residues 30-357)
Technique: RNA Bind-n-Seq
Form: RNA
Medium: in vitro
Tested at: not given
Setting: RNA with constant flanks, human and mouse sites, ends assumed
Relative to: input RNA pool
Reading: higher = stronger binding
Shared flanks, not repeated: GGGAGUUCUACAGUCCGACGAUC … CAACAGAGGAUUGAGCAUCA
Residues (chain): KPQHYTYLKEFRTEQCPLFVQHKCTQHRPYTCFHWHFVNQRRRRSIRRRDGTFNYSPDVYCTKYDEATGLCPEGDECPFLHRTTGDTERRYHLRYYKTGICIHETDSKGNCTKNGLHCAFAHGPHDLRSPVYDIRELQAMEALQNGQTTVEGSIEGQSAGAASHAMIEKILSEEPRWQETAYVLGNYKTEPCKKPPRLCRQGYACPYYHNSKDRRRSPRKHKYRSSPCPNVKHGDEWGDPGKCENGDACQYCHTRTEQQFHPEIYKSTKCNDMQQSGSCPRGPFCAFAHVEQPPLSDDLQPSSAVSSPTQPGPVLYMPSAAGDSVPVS
Strand | bound/input enrichment [ratio]
CUCAUGGCUGCAAUGGAGAUUUUCUCAGCUCAACAACAGGAAGACAUUAAGGAUGAGGAUGAACGUGAAGCCAGAGAAAAUGUGAAGAGAGAGCAAGAUGAGGCCUAUCGCCUUUCCCUC | 0.123
GAGGAAGAGAAUGCUGUUUUAAAGUUCCCUGAGCAGGCAGGGACCCUGCAGAAUGCAACUACUAGCAGCUCCCUGACAGCACAUCUCAGAAGCCUCUCCAAAGGCGAAUCCCCUGUGGCU | 0.117
AAAUAUAUAAAACUUCAGUGUAAAGGACAUGGUGAGUGCCCUACCACUGAGAAUACUGAGACCUUUAUUCGUCUGUGUGAGCGGUUUAAUGAAAGAAAUCCACCUGAACUUAUAGGUGUU | 0.0733
UUUUUAAUAUUAAACUGAAUGAAUAUAAUACUGAGUAACCUAAAAUGAAAGUUUUAAAAAGAUUUAUAUCCACUGAGAACACUGGCCUUAUAUUAAGGAUGAUAUUACAGUUACAGGUUU | 0.549
CUGUCAUGACUGGGUAGUGUGGACUAUCCUGAGCCGUAACUGCUCUGAAUGUUCACUCGAUUAGCCAUGUAUAUUUUAAAUGCUAAUAUUUAAUGAAUGUAAGUUUCAACAUUGUUGCUA | 2.01
GUUGCUUAUGAACGUGGCCAAUGUGAUCUGGAACUUAUUAAUGUUUGCAAUGAGAAUUCCCUCUUCAAAAGUCUUUCUCGCUACCUGGUACGUCGAAAGGAUCCAGAAUUGUGGGGCAGC | 0.192
CCCUUUCAGUUUAUUUUCCUUCCUUAUUUUGUUAUACAUACCCUUCCCUUUCUCCCCUGCCUUUCGUACAUUCAUUCCUCUUCCUCUACCCUCCAGCACAUCUACUUACUGGUGCUGUGC | 2.13
AAACCAACCAAUCCAGCUGCUCAGAAAGCUCUUACAACACCUACUCAUUAUAAACUUACACCUCGCCCUGCUACCAGAGUCAGGCCAAAGGCUUUGCAAACAACAGGCACAGCCAAAUCA | 0.3

Study 4
Cell line: HEK-293T/ACE2
Observed: pseudovirus infection
Organism: VSV pseudotyped with SARS-CoV-2 spike
Tested at: concentration not given
Relative to: vehicle-treated
Structure (SMILES) | GFP-positive cells [%]
COc1c(-c2ccc3cc(NS(C)(=O)=O)ccc3c2)cc(-n2ccc(=O)[nH]c2=O)cc1C(C)(C)C | 70.7
CO[C@H]1C[C@@H]2CC[C@@H](C)[C@@](O)(O2)C(=O)C(=O)N2CCCC[C@H]2C(=O)O[C@H]([C@H](C)C[C@@H]2CC[C@@H](OC(=O)C(C)(CO)CO)[C@H](OC)C2)CC(=O)[C@H](C)/C=C(\C)[C@@H](O)[C@@H](OC)C(=O)[C@H](C)C[C@H](C)/C=C/C=C/C=C/1C | 89.3
CCCCCOc1ccc(-c2cc(-c3ccc(C(=O)N[C@H]4C[C@@H](O)[C@@H](O)NC(=O)[C@@H]5[C@@H](O)[C@@H](C)CN5C(=O)[C@H]([C@H](O)CC(N)=O)NC(=O)[C@H]([C@H](O)[C@@H](O)c5ccc(O)c(OS(=O)(=O)[O-])c5)NC(=O)[C@@H]5C[C@@H](O)CN5C(=O)[C@H]([C@@H](C)O)NC4=O)cc3)no2)cc1.[Na+] | 91.8
CC(C)(C)c1cc(C(C)(C)C)c(NC(=O)c2c[nH]c3ccccc3c2=O)cc1O | 55.3

Study 5
Target: Replicase polyprotein 1ab, main protease (rep, Severe acute respiratory syndrome coronavirus 2, UniProt P0DTD1)
Observed: enzyme activity
Action: inhibitor
Tested at: 20 µM
Setting: hit confirmation, no DTT
SMILES | inhibition
c1ccc2sc(SSc3nc4ccccc4s3)nc2c1 | 109%
N[C@@H](Cc1ccc(O)c(O)c1)C(=O)O | 56.6%
CCCCCCCCCCCCCCCCCC[S+](CCC)c1ccccc1C(=O)OCC (centres unmarked) | 74.6%

Study 6
Target: Replicase polyprotein 1ab, nsp13 helicase (rep, Severe acute respiratory syndrome coronavirus 2, UniProt P0DTD1)
Action: inhibitor
Tested at: 20 µM
Compound | inhibition [%]
CCCC(=O)O[C@]1(C(=O)COC(C)=O)CC[C@H]2[C@@H]3C[C@H](F)C4=CC(=O)C=C[C@]4(C)[C@@]3(F)[C@@H](O)C[C@@]21C | 9.32
C[C@H](CCC(=O)O)[C@H]1CC[C@H]2[C@@H]3CC[C@@H]4C[C@H](O)CC[C@]4(C)[C@H]3C[C@H](O)[C@]12C | -2.21
O=c1oc2c(O)c(O)cc3c(=O)oc4c(O)c(O)cc1c4c23 | 10.9
CN(c1ccccc1CNc1nc(Nc2ccc3c(c2)CC(=O)N3)ncc1C(F)(F)F)S(C)(=O)=O | 3.71
O=S(=O)(Oc1ccc(Cl)cc1)c1ccc(Cl)cc1 | 4.92
CC(=O)NO | -2.79
OC[C@H]1O[C@@H](n2cnc3c(N[C@H]4CCC[C@@H]4O)ncnc32)[C@H](O)[C@@H]1O | 2.08
COc1cc(Nc2ncc3c(n2)-c2ccc(Cl)cc2C(c2c(F)cccc2OC)=NC3)ccc1C(=O)O | 11.7
COC1=C(OC)C(=O)C(CCCCCCCCCCO)=C(C)C1=O | 1.61
Nc1nc2c(nc(Br)n2[C@@H]2O[C@@H]3COP(=O)(O)O[C@H]3[C@H]2O)c(=O)[nH]1 | 4.65
CCCNC(=O)NS(=O)(=O)c1ccc(Cl)cc1 | -6.26
CCC(CC)CC1(C(=O)Nc2ccccc2SC(=O)C(C)C)CCCCC1 | -1.98
CN1CCN(c2ncc(-c3cc(Cl)cc(Cl)c3Cl)c(N)n2)CC1 | 3.5
Cc1ccccc1CN1C(=O)C2=C(CCN(Cc3ccccc3)C2)N2CCN=C12 | 2.71
C[C@H]1CC[C@@]2(OC1)O[C@H]1C[C@H]3[C@@H]4CC[C@@H]5C[C@@H](O)CC[C@]5(C)[C@H]4CC[C@]3(C)[C@H]1[C@@H]2C | -5.72
O=C1Cc2cc(CCN3CCN(c4nsc5ccccc45)CC3)c(Cl)cc2N1 | 4.39
CC(=O)OCC(=O)[C@@]12OC3(CCCC3)O[C@@H]1C[C@H]1[C@@H]3CCC4=CC(=O)C=C[C@]4(C)[C@@]3(F)[C@@H](O)C[C@@]12C | 3.34
CC(C)(C(=O)c1cccnc1)c1cccnc1 | 3.24
O=C(OCC(COC(=O)c1cccnc1)(COC(=O)c1cccnc1)COC(=O)c1cccnc1)c1cccnc1 | -3.26
CC(C)C(=O)c1c(C(C)C)nn2ccccc12 | 6.67
CC(=O)N(C)c1cc(-c2ccnc3c(C(=O)c4cccs4)cnn23)ccc1F | 0.96
CC(=O)Nc1ccc(Cc2ccc(NC(C)=O)cc2)cc1 | 3.46
N#CCC(=O)NN | 2.38
CC[N+]1(C)CCCC(OC(=O)C(O)(c2ccccc2)c2ccccc2)C1 (centres unmarked) | 4.51
CN[C@@H]1C[C@@H](c2ccc(Cl)c(Cl)c2)c2ccccc21 | 7.73
